Measured values pooled from the literature.
Values joined by “and” are separate records of one study, mostly repeats; a detail may differ. Numbers after ± are the reported error.
UniProt Q64663, sequence (whole entry, unmodified, looked up): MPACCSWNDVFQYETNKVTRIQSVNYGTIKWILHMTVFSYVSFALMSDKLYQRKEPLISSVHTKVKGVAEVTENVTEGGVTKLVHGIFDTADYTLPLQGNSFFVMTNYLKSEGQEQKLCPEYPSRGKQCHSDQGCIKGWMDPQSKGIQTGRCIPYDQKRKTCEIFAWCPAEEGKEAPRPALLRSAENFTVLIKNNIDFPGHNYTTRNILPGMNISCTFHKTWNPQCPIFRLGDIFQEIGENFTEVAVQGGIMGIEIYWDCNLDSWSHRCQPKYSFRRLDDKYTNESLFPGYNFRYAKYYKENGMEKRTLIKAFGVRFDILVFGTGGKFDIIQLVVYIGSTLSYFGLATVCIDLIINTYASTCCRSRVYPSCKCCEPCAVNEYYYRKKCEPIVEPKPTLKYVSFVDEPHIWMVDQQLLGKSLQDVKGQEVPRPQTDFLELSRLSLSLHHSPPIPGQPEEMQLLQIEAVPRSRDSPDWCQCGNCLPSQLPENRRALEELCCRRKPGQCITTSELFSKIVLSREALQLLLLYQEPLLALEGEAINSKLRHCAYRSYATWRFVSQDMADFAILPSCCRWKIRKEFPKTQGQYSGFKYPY
UniProt O75762, sequence (whole entry, looked up): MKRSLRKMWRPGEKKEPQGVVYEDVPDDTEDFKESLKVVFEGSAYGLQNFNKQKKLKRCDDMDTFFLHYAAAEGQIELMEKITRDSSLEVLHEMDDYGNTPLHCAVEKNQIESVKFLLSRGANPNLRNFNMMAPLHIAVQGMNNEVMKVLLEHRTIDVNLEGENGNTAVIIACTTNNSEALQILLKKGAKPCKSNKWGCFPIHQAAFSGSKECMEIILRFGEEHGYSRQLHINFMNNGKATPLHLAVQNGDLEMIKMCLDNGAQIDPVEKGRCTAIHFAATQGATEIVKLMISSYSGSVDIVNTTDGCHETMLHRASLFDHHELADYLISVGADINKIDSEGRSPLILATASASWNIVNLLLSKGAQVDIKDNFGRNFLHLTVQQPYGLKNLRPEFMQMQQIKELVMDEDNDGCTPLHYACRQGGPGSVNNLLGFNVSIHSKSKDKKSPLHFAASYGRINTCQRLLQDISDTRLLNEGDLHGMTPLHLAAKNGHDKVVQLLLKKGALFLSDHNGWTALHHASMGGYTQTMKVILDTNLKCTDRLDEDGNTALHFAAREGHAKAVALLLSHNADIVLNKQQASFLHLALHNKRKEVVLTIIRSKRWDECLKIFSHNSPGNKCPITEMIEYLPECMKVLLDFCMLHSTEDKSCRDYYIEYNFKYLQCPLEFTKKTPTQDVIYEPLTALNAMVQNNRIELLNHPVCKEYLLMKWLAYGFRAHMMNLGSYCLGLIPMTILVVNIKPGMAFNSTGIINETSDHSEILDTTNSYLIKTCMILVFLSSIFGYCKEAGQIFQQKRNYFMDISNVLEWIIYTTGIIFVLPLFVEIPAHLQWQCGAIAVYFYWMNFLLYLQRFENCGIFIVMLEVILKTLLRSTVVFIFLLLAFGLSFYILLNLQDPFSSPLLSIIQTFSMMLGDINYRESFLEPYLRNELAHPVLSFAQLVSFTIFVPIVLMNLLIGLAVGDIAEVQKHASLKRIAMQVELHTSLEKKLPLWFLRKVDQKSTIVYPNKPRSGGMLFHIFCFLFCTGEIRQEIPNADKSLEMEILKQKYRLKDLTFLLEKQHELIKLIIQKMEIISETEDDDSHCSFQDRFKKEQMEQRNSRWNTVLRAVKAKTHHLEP
UniProt P51575, sequence (whole entry, looked up): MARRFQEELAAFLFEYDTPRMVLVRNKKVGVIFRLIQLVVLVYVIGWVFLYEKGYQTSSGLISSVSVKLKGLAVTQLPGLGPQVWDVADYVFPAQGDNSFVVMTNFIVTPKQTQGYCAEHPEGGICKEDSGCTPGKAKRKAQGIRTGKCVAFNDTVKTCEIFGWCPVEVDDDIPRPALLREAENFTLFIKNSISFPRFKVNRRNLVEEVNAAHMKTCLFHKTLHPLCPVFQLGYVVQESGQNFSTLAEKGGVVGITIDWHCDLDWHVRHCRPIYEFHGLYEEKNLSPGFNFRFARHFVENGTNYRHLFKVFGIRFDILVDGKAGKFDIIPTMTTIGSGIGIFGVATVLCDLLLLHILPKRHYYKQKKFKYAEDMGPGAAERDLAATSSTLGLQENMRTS
UniProt P22736, sequence (whole entry, looked up): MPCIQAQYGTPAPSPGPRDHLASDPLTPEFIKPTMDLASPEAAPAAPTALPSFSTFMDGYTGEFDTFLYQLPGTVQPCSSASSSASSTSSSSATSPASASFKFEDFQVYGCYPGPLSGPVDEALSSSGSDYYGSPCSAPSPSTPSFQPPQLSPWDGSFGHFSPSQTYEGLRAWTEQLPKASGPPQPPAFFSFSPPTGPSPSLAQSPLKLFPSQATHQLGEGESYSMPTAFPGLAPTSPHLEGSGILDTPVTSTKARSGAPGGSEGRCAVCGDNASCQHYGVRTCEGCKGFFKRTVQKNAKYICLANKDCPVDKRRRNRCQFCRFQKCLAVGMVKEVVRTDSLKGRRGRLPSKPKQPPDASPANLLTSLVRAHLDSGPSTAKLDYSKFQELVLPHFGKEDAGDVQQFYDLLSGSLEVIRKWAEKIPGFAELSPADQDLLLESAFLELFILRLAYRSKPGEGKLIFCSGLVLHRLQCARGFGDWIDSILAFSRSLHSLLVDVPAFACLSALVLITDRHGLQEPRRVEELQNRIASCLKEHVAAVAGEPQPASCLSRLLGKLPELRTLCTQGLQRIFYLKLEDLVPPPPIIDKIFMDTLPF
UniProt P41595, sequence (whole entry, looked up): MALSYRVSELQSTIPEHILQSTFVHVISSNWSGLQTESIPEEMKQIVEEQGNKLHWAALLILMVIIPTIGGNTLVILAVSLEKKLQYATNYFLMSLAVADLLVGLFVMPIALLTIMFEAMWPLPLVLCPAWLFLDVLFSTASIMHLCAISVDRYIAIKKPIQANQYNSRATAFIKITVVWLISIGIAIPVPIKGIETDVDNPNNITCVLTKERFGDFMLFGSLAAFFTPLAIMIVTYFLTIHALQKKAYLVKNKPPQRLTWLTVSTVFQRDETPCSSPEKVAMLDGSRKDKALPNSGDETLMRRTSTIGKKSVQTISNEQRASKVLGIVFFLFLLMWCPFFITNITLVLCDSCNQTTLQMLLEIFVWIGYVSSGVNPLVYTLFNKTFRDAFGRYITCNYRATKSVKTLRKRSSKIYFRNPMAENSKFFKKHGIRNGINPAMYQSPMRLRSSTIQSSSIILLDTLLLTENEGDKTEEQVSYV
UniProt Q07011, sequence (whole entry, unmodified, looked up): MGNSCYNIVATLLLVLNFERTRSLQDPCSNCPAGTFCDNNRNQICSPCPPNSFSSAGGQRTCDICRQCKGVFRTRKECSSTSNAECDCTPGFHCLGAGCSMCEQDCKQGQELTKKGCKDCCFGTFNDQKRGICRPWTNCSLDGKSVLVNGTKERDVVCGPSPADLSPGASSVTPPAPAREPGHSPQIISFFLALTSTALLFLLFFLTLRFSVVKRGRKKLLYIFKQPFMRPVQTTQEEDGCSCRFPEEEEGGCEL
UniProt Q96NY8, sequence (whole entry, looked up): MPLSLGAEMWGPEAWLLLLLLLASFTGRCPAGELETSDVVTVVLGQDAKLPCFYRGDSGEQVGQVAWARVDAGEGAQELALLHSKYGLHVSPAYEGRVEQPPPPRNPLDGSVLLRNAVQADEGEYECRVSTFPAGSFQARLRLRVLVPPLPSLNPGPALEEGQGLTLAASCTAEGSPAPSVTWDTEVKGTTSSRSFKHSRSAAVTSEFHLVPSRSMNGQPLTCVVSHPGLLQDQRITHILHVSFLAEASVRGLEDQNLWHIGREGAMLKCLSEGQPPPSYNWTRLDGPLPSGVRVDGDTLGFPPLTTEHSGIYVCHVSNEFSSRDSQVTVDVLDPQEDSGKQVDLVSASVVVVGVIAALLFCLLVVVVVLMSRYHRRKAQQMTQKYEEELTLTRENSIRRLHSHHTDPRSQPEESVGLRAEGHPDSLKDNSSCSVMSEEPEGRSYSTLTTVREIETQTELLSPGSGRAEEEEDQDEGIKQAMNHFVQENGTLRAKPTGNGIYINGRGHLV
UniProt Q2TB90, sequence (whole entry, unmodified, looked up): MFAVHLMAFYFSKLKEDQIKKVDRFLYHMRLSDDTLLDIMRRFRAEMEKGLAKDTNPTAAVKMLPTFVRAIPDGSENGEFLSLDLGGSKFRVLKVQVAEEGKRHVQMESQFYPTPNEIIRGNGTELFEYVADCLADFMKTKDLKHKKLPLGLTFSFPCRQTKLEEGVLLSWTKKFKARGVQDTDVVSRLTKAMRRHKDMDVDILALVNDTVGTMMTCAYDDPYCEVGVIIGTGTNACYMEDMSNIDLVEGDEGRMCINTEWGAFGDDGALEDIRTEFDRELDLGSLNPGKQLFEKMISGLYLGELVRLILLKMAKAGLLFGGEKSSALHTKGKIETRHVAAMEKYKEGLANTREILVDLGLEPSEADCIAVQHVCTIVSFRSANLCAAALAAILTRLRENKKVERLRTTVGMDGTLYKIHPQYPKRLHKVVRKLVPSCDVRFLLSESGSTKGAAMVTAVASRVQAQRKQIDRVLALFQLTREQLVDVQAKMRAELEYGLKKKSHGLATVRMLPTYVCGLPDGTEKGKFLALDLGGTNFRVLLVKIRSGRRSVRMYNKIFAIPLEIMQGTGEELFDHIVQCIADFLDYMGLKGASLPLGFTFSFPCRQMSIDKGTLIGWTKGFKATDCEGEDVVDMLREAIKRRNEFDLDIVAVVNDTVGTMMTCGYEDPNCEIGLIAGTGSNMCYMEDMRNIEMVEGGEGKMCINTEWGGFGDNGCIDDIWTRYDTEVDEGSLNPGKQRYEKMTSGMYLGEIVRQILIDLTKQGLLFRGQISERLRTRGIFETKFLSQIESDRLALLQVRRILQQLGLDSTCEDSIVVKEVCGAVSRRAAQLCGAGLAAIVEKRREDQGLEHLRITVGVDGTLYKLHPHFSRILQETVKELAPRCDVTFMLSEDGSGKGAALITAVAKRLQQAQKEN

SMILES = Cn1cc(-c2ccc(-c3cncc(Cl)c3N3CCC4(CCNC4=O)CC3)cc2)cn1; tested on = COLO 205; assay = gene expression, microarray, measured: APOL6 mRNA; setting = concentration not given, 6 h; how to read = baseline: untreated cells; quantity = log2 fold change; result = 1.46
SMILES = CC(C)C[C@H](NC(=O)C[C@H](O)[C@H](CC(C)C)NC(=O)[C@H](Cc1c[nH]cn1)NC(=O)CNC(=O)[C@@H](NC(=O)[C@H](C)NC(=O)[C@H](Cc1c[nH]c2ccccc12)NC(=O)[C@H](CCC(N)=O)NC(=O)[C@@H](Cc1ccccc1)NC(=O)COCCOCCNC(=O)CCC(C(=O)O)N1CCN(CC(=O)O)CCN(CC(=O)O)CCN(CC(=O)O)CC1)C(C)C)C(N)=O (some centres unmarked) [lutetium-177 labelled]; system = BALB/c nu/nu mice, female, tumor; setting = 50 pmol, 1 h, added: PBS co-injection; quantity = tissue uptake; result = 12 ± 3 %ID/g
SMILES = [Ca]; tested on = TRPA1 (Homo sapiens, UniProt O75762); assay = ion current, two-electrode voltage clamp; system = Xenopus oocytes; setting = concentration not given, +80 mV, added: extracellular Ca2+; how to read = baseline: current before Ca2+ addition; quantity = potentiation; result = 3.44 fold change and 2.7 fold change and 1.58 fold change and 3.76 fold change and 2.29 fold change
SMILES = CO[C@H]1/C=C/O[C@@]2(C)Oc3c(C)c(O)c4c(O)c(c(/C=N/N5CCN(C)CC5)c(O)c4c3C2=O)NC(=O)/C(C)=C\C=C\[C@H](C)[C@H](O)[C@@H](C)[C@@H](O)[C@@H](C)[C@H](OC(C)=O)[C@@H]1C; tested on = human iPSC-derived cardiomyocytes; assay = MyBP-C/MYH ratio, plate-normalised SD score; setting = concentration not given, primary screen; how to read = direction not given; quantity = activity score; result = 3.4
SMILES = NCCS(=O)(=O)O; tested on = SLC6A6 (Homo sapiens, UniProt P31641, S402A); assay = binding, microscale thermophoresis; setting = 3.91 µM, room temperature, added: 50 nM labelled protein; how to read = higher = more binding; quantity = normalised MST signal; result = 0.00923
SMILES = Nc1ncnc2c1ncn2[C@@H]1O[C@H](COP(=O)(O)OP(=O)(O)OP(=O)(O)O)[C@@H](O)[C@H]1O; tested on = Hexokinase HKDC1 (Homo sapiens, UniProt Q2TB90, T58M); assay = substrate, G6PDH-coupled; setting = pH 8, 25 °C; quantity = Km; result = 650 ± 30 µM
SMILES = Nc1ncnc2c1ncn2[C@@H]1O[C@H](COP(=O)(O)CP(=O)(O)OP(=O)(O)O)[C@@H](O)[C@H]1O; tested on = P2X purinoceptor 1 (P2RX1, Homo sapiens, UniProt P51575); assay = calcium influx; setting = 31.6 nM; how to read = baseline: ionomycin response; quantity = calcium influx; result = 4.58% and 5.67% and 0.61% and 6.73%
SMILES = Nc1ncnc2c1ncn2[C@@H]1O[C@H](COP(=O)(O)OP(=O)(O)OP(=O)(O)O)[C@@H](O)[C@H]1O; tested on = P2X purinoceptor 7 (P2rx7, Rattus norvegicus, UniProt Q64663); assay = ion current, agonist, two-electrode voltage clamp; system = Xenopus laevis oocytes; setting = 3000 µM; how to read = baseline: highest concentration response; quantity = normalized current; result = 0.97 and 1
SMILES = Nc1ncnc2c1ncn2[C@@H]1O[C@H](COP(=O)(O)OP(=O)(O)OP(=O)(O)O)[C@@H](O)[C@H]1O; tested on = DNA-directed RNA polymerase subunit beta' / DNA-directed RNA polymerase subunit beta (rpoC/rpoB, Escherichia coli, UniProt P0A8T7+P0A8V2); assay = RNA extension, rapid quench-flow; system = Escherichia coli, elongation complex, 6-MI template; setting = 200 µM, 25 °C, fast complex fraction; quantity = nucleotide addition rate; result = 36 ± 2 s⁻¹
SMILES = COc1cccc(OC)c1C(=O)N[C@@H]1C(=O)N2[C@@H]1SC(C)(C)[C@@H]2C(=O)O; tested on = human iPSC-derived cardiomyocytes; assay = MyBP-C/MYH ratio, plate-normalised SD score; setting = concentration not given, primary screen; how to read = direction not given; quantity = activity score; result = -3.6
SMILES = COC(=O)c1cn(C)c2ccc(-c3cccnc3)cc12; tested on = Nuclear receptor subfamily 4 group A member 1 (NR4A1, Homo sapiens, UniProt P22736); assay = reporter gene, Gal4 hybrid reporter; setting = 10 µM; how to read = baseline: vehicle; quantity = activation; result = 0.59 fold
SMILES = CC1=C(/C=C/C(C)=C/C=C/C(C)=C/C=O)C(C)(C)CCC1; tested on = Rhodopsin (RHO, Bos taurus, UniProt P02699, I189V); assay = retinal entry, Trp FRET; system = lipid bicelles; setting = 28 °C, I189V mutant; how to read = baseline: wild-type rhodopsin; quantity = relative kon; result = 1.09 ± 0.04
SMILES = C=CC(=O)N1CCC(COCC(=O)N2CCN(c3nc(-c4cnc(N)nc4C(F)F)nc(N4CCOC[C@@H]4C)n3)CC2)CC1; tested on = Tyrosine-protein kinase ABL1, non-phosphorylated (ABL1, Homo sapiens, UniProt P00519, Q252H); assay = KINOMEscan; setting = 1 µM; quantity = remaining binding; result = 96%
SMILES = C[C@H]1O[C@@H](O[C@H]2CC[C@@]3(C)[C@@H](CC[C@]4(C)[C@@H]3C=C[C@]35OC[C@@]6(CCC(C)(C)C[C@H]63)[C@@H](O)C[C@]54C)[C@]2(C)CO)[C@H](O)[C@@H](O[C@@H]2O[C@H](CO)[C@@H](O)[C@H](O)[C@H]2O)[C@H]1O; tested on = SIRT1 (Homo sapiens, UniProt Q96EB6); assay = binding, microscale thermophoresis; setting = 131 nM; quantity = MST normalised fluorescence; result = 885 a.u.
SMILES = CCCC[C@@H]1NC(=O)[C@H](Cc2ccc(O)cc2)NC(=O)[C@@H]2CCCN2C(=O)[C@H](CC(=O)O)NC(=O)[C@H](C)NC(=O)[C@H](Cc2ccccc2)NC(=O)[C@@H]2CSCCC(=O)N3CN(CN(C3)C(=O)CCSC[C@@H](C(=O)N[C@@H](C)C(N)=O)NC1=O)C(=O)CCSC[C@H](NC(C)=O)C(=O)N[C@@H](CC(C)(C)C)C(=O)N1CCC[C@H]1C(=O)N[C@@H](CCCCNC(=O)CCc1cn(CCOCCOCCOCCOCCOCCC(=O)N[C@H]3CSCCC(=O)N4CN5CN(C4)C(=O)CCSC[C@H](NC(=O)[C@@H](CC(=O)O)NC(=O)[C@H](Cc4cccc6ccccc46)NC(=O)[C@@H]4CCCN4C3=O)C(=O)N[C@@H](CCSC)C(=O)N[C@@H](CCCCNC(=N)N)C(=O)N[C@@H](CC(=O)O)C(=O)N[C@@H](Cc3c[nH]c4ccccc34)C(=O)N[C@@H](CO)C(=O)N[C@@H]([C@@H](C)O)C(=O)N3CCC[C@H]3C(=O)N3C[C@H](O)C[C@H]3C(=O)N[C@@H](Cc3c[nH]c4ccccc34)C(=O)N[C@H](C(N)=O)CSCCC5=O)nn1)C(=O)N[C@H](C)C(=O)N1CCC[C@H]1C(=O)N[C@@H](Cc1ccc(O)cc1)C(=O)N2; tested on = Tumor necrosis factor receptor superfamily member 9/Nectin-4 (Homo sapiens, UniProt Q07011+Q96NY8); assay = reporter gene, agonist; system = HT-1376 coculture with reporter cells; how to read = baseline: background; quantity = Emax; result = 37 fold
SMILES = CC(C)[C@H](NC(=O)[C@@H](NC(=O)CCCc1cn(CC(O)CN2CCN(CC(=O)O)CCN(CC(=O)O)CCN(CC(=O)O)CC2)nn1)[C@@H](C)O)C(=O)N[C@@H](CCCNC(=N)N)C(=O)N[C@H](C(=O)N[C@@H](CO)C(=O)N[C@@H](C)C(=O)N[C@@H](CC(=O)O)C(=O)O)[C@@H](C)O (some centres unmarked); system = healthy male humans, plasma; setting = intravenous bolus, 0.08 mmol/kg, 0 h; quantity = AUC(0-t); result = 1950 ± 322 µg·h/mL
SMILES = N#C[C@@]12C[C@@H]1[C@@H](n1cnc3c(N[C@@H](C4CCC4)C4CC4)nc(I)nc31)[C@H](O)[C@@H]2O; tested on = HTR2B (Homo sapiens, UniProt P41595); assay = antagonist, calcium flux; setting = added: 5-HT; how to read = baseline: 5-HT2C over 5-HT2B; quantity = selectivity ratio; result = 3.6 fold
